Published values of several laboratories.
A part holds a random share of what one study measured. “And” joins repeats or separate records; there may be more than shown.
Chain of UniProt Q02750 (whole entry, looked up): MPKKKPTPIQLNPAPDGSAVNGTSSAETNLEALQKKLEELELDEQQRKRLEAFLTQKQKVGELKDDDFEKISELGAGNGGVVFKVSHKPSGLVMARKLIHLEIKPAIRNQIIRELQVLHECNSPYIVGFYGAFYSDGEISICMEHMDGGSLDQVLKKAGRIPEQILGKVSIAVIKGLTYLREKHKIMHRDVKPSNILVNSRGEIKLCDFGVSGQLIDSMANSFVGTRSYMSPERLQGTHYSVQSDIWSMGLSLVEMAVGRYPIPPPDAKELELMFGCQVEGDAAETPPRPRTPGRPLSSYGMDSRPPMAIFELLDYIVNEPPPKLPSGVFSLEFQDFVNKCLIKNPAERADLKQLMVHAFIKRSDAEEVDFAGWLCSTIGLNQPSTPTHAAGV
Chain of UniProt Q9BWU1 (whole entry, looked up): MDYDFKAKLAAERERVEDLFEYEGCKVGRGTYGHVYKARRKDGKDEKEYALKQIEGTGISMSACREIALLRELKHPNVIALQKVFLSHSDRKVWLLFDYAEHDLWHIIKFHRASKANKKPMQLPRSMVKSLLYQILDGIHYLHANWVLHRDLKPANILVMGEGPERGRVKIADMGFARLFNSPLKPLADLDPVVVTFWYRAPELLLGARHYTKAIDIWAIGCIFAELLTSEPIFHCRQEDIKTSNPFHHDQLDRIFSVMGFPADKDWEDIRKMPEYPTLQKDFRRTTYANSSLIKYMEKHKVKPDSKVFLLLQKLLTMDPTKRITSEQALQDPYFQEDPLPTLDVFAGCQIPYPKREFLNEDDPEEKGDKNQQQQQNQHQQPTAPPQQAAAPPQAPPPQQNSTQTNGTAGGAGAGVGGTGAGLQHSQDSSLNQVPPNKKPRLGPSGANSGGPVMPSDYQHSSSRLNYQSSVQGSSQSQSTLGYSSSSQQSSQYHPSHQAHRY
Chain of UniProt Q13976 (whole entry, looked up): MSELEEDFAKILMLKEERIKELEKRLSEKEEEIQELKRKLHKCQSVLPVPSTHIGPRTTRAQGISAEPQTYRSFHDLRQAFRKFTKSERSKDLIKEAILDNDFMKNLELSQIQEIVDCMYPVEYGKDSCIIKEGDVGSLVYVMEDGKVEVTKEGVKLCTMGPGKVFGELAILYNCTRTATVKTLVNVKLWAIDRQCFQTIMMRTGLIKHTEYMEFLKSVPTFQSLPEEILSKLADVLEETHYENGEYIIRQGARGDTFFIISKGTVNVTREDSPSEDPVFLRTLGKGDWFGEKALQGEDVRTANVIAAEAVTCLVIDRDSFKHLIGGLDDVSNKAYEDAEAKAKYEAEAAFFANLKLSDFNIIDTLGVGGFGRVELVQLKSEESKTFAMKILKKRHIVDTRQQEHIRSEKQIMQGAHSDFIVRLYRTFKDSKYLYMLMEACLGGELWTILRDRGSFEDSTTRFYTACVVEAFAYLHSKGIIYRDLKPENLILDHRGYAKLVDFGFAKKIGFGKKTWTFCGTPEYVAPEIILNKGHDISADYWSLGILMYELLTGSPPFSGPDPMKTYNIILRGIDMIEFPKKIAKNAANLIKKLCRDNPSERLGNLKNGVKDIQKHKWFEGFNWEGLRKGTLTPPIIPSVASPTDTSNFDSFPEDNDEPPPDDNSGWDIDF
Chain of UniProt Q14004 (whole entry, looked up): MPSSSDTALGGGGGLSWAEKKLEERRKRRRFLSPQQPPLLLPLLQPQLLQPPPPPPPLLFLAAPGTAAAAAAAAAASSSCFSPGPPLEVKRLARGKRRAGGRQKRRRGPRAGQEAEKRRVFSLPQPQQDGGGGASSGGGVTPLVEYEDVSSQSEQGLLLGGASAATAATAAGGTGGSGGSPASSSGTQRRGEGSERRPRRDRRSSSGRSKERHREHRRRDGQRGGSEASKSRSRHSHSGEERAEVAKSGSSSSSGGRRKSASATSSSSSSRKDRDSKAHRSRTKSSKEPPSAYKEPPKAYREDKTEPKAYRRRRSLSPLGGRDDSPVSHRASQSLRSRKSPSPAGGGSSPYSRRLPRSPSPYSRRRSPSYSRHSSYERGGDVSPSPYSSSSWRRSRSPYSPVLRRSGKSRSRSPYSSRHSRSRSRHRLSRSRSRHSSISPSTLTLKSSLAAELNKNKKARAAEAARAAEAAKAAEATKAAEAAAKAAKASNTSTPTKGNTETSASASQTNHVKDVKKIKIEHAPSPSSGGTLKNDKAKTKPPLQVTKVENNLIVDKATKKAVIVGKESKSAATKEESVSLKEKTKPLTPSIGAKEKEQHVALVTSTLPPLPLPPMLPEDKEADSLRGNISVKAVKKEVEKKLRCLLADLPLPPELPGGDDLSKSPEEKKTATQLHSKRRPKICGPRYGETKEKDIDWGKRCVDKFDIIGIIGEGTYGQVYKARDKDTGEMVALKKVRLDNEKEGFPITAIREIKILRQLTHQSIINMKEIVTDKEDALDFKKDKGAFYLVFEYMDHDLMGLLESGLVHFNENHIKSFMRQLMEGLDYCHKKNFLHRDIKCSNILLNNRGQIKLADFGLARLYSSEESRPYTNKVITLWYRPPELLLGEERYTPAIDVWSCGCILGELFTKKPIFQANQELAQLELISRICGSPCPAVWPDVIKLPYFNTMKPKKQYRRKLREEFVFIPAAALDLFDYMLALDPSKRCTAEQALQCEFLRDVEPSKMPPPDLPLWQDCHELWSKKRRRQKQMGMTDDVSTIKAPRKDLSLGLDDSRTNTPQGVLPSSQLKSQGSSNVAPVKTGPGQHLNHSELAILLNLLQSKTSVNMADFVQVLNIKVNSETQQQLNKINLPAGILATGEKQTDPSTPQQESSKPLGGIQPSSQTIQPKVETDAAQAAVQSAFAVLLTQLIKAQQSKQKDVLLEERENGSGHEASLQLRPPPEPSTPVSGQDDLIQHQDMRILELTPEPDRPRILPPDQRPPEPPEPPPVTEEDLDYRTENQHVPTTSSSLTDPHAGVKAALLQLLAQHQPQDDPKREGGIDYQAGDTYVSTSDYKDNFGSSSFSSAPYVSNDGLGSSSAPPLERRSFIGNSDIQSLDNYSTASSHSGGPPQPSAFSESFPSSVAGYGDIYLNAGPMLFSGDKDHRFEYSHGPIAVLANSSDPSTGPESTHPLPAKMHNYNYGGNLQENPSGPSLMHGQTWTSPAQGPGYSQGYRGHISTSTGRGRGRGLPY
Chain of UniProt P51956 (whole entry, looked up): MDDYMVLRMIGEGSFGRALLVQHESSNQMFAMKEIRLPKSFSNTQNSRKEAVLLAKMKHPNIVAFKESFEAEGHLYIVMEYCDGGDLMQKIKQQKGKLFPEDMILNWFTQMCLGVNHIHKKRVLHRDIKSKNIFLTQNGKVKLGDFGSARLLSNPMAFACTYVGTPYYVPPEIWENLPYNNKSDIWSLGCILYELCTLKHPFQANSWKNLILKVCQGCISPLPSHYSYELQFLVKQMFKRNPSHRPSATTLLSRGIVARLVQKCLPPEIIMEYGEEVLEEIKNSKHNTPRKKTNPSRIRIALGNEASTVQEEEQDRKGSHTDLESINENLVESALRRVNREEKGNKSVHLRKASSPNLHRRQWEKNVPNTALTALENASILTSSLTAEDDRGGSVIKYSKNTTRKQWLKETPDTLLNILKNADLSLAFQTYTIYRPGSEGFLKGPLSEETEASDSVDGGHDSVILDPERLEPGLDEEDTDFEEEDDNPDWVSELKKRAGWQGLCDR
Chain of UniProt Q96L34 (whole entry, looked up): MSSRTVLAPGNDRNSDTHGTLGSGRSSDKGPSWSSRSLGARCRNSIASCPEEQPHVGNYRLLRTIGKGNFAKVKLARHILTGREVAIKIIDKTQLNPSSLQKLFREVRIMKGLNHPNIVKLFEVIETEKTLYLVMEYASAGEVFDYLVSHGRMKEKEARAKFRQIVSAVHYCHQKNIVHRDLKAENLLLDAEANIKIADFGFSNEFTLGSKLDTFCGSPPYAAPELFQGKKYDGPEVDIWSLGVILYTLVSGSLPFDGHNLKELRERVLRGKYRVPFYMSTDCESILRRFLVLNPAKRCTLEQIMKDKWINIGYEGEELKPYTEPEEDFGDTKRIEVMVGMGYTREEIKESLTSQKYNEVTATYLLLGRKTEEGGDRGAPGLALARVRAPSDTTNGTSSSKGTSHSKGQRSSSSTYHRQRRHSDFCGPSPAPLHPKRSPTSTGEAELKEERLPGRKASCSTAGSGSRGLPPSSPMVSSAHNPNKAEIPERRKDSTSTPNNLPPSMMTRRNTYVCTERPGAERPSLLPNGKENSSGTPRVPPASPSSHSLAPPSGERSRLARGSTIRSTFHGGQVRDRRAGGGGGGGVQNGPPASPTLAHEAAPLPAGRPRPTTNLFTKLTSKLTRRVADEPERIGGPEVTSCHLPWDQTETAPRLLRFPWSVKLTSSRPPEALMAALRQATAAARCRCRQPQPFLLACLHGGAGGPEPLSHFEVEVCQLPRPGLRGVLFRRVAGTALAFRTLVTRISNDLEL
Chain of UniProt Q06187 (whole entry, looked up): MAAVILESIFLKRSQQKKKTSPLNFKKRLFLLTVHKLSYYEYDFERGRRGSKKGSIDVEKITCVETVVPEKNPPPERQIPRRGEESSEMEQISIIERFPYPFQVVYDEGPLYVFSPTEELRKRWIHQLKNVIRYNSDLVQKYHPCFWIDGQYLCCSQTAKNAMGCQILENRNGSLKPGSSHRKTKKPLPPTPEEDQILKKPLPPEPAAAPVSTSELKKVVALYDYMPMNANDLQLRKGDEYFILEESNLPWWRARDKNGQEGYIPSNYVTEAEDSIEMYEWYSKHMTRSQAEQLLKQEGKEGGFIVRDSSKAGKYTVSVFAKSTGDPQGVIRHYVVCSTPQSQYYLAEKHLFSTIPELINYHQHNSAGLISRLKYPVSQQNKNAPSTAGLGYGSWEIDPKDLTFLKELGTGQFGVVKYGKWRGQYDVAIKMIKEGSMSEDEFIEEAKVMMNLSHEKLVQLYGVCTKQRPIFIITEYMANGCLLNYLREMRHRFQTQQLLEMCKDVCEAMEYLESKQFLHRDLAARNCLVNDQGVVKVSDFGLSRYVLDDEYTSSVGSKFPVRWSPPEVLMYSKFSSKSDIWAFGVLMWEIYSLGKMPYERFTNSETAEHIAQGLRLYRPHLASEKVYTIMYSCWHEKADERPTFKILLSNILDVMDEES

Block 1
Structure (SMILES): CS(=O)(=O)CCNCc1ccc(-c2ccc3ncnc(Nc4ccc(OCc5cccc(F)c5)c(Cl)c4)c3c2)o1
Read-out: enzyme activity
Mode: inhibitor
Concentration: 0.5 µM
Reference: control
For AKT3 (Homo sapiens, UniProt Q9Y243): remaining activity read 83.5%.
It gave 103% for remaining activity (BTK (Homo sapiens, UniProt Q06187)).
The remaining activity was 98.1% (NEK4 (Homo sapiens, UniProt P51957)).
It gave 101% for remaining activity (STK38 (Homo sapiens, UniProt Q15208)).
The remaining activity was 91.5% (IRAK4 (Homo sapiens, UniProt Q9NWZ3)).
It gave 95.4% for remaining activity (PRKG1 (Homo sapiens, UniProt Q13976)).
The remaining activity was 95% (MAPK12 (Homo sapiens, UniProt P53778)).
For KIT (Homo sapiens, UniProt P10721): remaining activity read 98.4%.
For EPHA5 (Homo sapiens, UniProt P54756): remaining activity read 103%.
It gave 97.3% for remaining activity (MKNK2 (Homo sapiens, UniProt Q9HBH9)).

Block 2
SMILES: Cc1nc(C2CCN(C(=O)c3ccc(OC(F)(F)F)cc3N)CC2)c2ncc(N3CCN(C)CC3)cc2n1
Concentration: 1 µM
For CDK19 (Homo sapiens, UniProt Q9BWU1); competition binding: remaining binding read 86%.
MAP2K1 (Homo sapiens, UniProt Q02750); cell-free assay, competition with immobilised ligand — remaining binding: 85%.
The remaining binding was 89% (NEK3 (Homo sapiens, UniProt P51956); cell-free assay, competition with immobilised ligand).
For MARK4 (Homo sapiens, UniProt Q96L34); cell-free assay, competition with immobilised ligand: remaining binding read 100%.
BMPR2 (Homo sapiens, UniProt Q13873); cell-free assay, competition with immobilised ligand — remaining binding: 100%.
The remaining binding was 100% (TXK (Homo sapiens, UniProt P42681); binding, competition with immobilised ligand).
For CDK13 (Homo sapiens, UniProt Q14004); cell-free assay, competition with immobilised ligand: remaining binding read 88%.
It gave 100% for remaining binding (Ribosomal protein S6 kinase alpha-2, N-terminal kinase domain (RPS6KA2, Homo sapiens, UniProt Q15349); cell-free assay, competition with immobilised ligand).
The remaining binding was 100% (MAPK11 (Homo sapiens, UniProt Q15759); cell-free assay, competition with immobilised ligand).

Block 3
Host: mouse
Medium: microsomes or S9
Concentration: 2 µM
Time: 0.5 h
For `O=C(CCCc1c[nH]c2ccccc12)Nc1cccc(C(=O)O)c1`, the remaining compound was 95.5%.
For `CCCN(CCC)S(=O)(=O)c1cc2c(cc1Cl)Oc1ccc(C)cc1NC2=O`, the remaining compound was < 1%.
The remaining compound of `CCOC(=O)Cc1cc(=O)n2nc(Cc3ccccc3)c(-c3ccccc3)c2[nH]1` is reported as < 1%.
`CCOc1cc(=O)n2c(c1C(=O)Nc1ccccc1C(=O)OC)CCCC2` gave a remaining compound of < 1%.
The remaining compound of `COC(=O)c1ccc(C(=O)N2CCN(C(C)=O)N(C(=O)C[C@@H](Cc3cc(F)c(F)cc3F)NC(=O)OC(C)(C)C)CC2)cc1` is reported as 18.4%.
`O=C(CSc1n[nH]c2nc3ccccc3n12)c1ccc(O)cc1` gave a remaining compound of 8.93%.
`COC(C)(C)c1noc(-c2ccc(=O)n(C)n2)n1` has a remaining compound of 77.2%.
`COCC1CCCN(c2nnc(-c3n[nH]c4c3CCCC4)n2C)CC1` (stereo not shown) has a remaining compound of 23.7%.

Further values, each from its own experiment
`COc1ccc(-c2c(Nc3ccccn3)[nH]c3c(C4=CCCCC4)c(-c4ccccc4)nn3c2=O)cc1` gave an AUC(0-tau) of 133 µg·h/mL and 124 µg·h/mL (human, plasma; oral, 200 mg twice daily).

A few entries again (block 1):
It gave 97.3% for remaining activity (MKNK2 (Homo sapiens, UniProt Q9HBH9)).
For KIT (Homo sapiens, UniProt P10721): remaining activity read 98.4%.
It gave 103% for remaining activity (BTK (Homo sapiens, UniProt Q06187)).
The remaining activity was 98.1% (NEK4 (Homo sapiens, UniProt P51957)).
